Measured values from different studies.
Each numbered part is a random draw from the data of one study; scales do not carry over between parts.

Sample 1 — method: universal PBM; molecule type: double-stranded DNA, one strand shown; sample: in vitro; tested at: 600 nM; direction: higher = stronger binding
Target: Sal-like protein 4, full length isoform A (SALL4, Homo sapiens, UniProt Q9UJQ4, residues 1-1053)
UniProt Q9UJQ4, sequence (whole entry, looked up): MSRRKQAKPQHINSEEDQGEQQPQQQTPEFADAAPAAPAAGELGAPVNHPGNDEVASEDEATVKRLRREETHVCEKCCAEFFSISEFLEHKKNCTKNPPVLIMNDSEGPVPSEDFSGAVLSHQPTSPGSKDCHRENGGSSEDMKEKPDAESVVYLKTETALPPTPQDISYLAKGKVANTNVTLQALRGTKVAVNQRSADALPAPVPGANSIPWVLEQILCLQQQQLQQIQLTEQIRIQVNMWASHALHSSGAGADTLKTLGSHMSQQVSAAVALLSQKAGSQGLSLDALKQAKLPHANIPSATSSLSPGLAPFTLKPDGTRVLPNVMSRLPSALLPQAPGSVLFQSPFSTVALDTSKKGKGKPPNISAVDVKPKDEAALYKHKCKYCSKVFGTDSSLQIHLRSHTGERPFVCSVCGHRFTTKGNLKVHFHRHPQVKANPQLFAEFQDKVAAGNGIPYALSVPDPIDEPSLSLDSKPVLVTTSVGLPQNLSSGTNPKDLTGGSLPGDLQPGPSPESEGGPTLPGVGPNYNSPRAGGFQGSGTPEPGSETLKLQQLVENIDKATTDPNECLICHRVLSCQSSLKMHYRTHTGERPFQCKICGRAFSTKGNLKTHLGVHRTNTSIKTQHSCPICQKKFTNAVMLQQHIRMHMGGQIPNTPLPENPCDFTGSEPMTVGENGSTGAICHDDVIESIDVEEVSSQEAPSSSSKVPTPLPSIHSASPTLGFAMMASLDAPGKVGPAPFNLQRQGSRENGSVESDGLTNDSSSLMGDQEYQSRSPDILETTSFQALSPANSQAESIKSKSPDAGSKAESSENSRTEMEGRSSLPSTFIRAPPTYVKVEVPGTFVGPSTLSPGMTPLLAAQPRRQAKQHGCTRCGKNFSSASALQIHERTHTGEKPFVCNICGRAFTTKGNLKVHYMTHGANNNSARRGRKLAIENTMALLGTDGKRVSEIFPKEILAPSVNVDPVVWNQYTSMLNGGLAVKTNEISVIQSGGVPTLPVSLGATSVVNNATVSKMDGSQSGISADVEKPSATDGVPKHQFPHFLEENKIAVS
Notes: 8-mer, flanks averaged, mean of replicates
For `CAGGACGA`, the E-score was -0.228.
`GCTTATTA` gave an E-score of 0.323.
`CGCTGTGA` gave an E-score of -0.203.
`GCACGCGA` gave an E-score of -0.21.
`AGCAACTG` gave an E-score of -0.0907.
The E-score of `ACCACAAG` is reported as -0.0297.
For `AGGTCGAT`, the E-score was -0.0329.
For `AGCTGCAG`, the E-score was -0.102.
`CCGAAAGA` gave an E-score of -0.0914.
The E-score of `GCTGTACC` is reported as -0.205.
The E-score of `AATAAGTA` is reported as 0.348.
For `ATCCTTAA`, the E-score was 0.0688.
`CAGATGTA` gave an E-score of 0.109.
`CTTCACTA` gave an E-score of 0.161.
For `ATCTTCTC`, the E-score was 0.0192.
`GATCTCCC` has an E-score of -0.259.
The E-score of `ATGTTCGG` is reported as 0.0153.
`ACGAGTTC` gave an E-score of -0.0225.
With `ACATAAGG` the E-score was 0.186.
`AGAGCTAG` has an E-score of -0.0712.
With `CTGGTGCC` the E-score was -0.319.
For `AGCGCTAC`, the E-score was -0.0344.
`GTTCTCTA` has an E-score of 0.0478.
For `GATGACAC`, the E-score was -0.118.
With `AGAAAGTA` the E-score was 0.221.

Sample 2 — method: RNA Bind-n-Seq; molecule type: RNA; sample: in vitro; tested at: 20 nM; notes: 6-mer, flanks averaged, single round; with: 150 mM KCl; relative to: input library; direction: higher = stronger binding
Target: TAR DNA-binding protein 43, full length, His tag (TARDBP, Homo sapiens, UniProt Q13148, residues 1-414)
For `AGCCGU`, “6-mer enrichment (R)” read 0.77.
`AUAGUA`: “6-mer enrichment (R)” 0.669.
For `GAAGAG`, “6-mer enrichment (R)” read 1.82.
For `AUCGUG`, “6-mer enrichment (R)” read 0.792.
Under “6-mer enrichment (R)”, `AUGAUC` is recorded as 0.605.
Under “6-mer enrichment (R)”, `UAAACC` is recorded as 0.588.
`CCCCGA` — result for “6-mer enrichment (R)”: 0.685.
Under “6-mer enrichment (R)”, `ACAUCC` is recorded as 0.609.
For `ACCGGG`, “6-mer enrichment (R)” read 2.
`UUACUC`: “6-mer enrichment (R)” 0.553.
`CAUCCA` — result for “6-mer enrichment (R)”: 0.605.
For `AGUAUA`, “6-mer enrichment (R)” read 0.684.
Under “6-mer enrichment (R)”, `AUUUGG` is recorded as 0.868.
For `ACGAUU`, “6-mer enrichment (R)” read 0.577.
For `GAUGGU`, “6-mer enrichment (R)” read 1.29.
Under “6-mer enrichment (R)”, `UGGCGA` is recorded as 1.41.

Sample 3 — method: protein binding microarray; molecule type: double-stranded DNA, one strand shown; sample: in vitro; tested at: not given; relative to: not given; direction: higher = stronger binding
Target: Histone acetyltransferase KAT6A, winged helix 1, GST fusion (KAT6A, Homo sapiens, UniProt Q92794, residues 1-85)
Notes: 8-mer, flanks averaged, mean of 2 arrays, mostly near background
Residues (chain): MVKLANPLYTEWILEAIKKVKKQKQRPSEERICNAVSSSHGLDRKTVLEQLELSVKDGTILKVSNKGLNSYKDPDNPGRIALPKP
`ATCGATAC` has an E-score of -0.0597.
With `AACGGCAA` the E-score was 0.191.
The E-score of `ACGCGAGA` is reported as 0.0818.
For `TGAGAACA`, the E-score was -0.172.
The E-score of `CAACTGAC` is reported as -0.0454.
`ATACTGAA` gave an E-score of -0.0421.
With `ATCTTTAG` the E-score was -0.127.
With `CGTGACTA` the E-score was 0.00936.
`AATGGCTG` gave an E-score of -0.222.
`ATCGGTAC` has an E-score of 0.166.
The E-score of `GAATAACA` is reported as -0.162.
For `ATCTCAAT`, the E-score was -0.147.
With `AAACTCCA` the E-score was -0.117.
With `ACCTTAGC` the E-score was -0.0351.
With `CGAAGTAA` the E-score was -0.0647.
With `GCGGCCCC` the E-score was 0.399.
`AACGTGAC` gave an E-score of -0.0246.
With `GAGGCGAA` the E-score was -0.0304.
For `GGATGCAA`, the E-score was -0.215.
`GTTTGTCA` has an E-score of -0.0839.
`ATGATCAC` gave an E-score of -0.104.
For `CCATGAAG`, the E-score was -0.128.
`ACGTGCCC` gave an E-score of -0.0116.
For `GAGCTTTA`, the E-score was 0.0288.
For `GGATTTTA`, the E-score was -0.0717.

Sample 4 — method: competition protein-binding microarray; molecule type: double-stranded DNA, one strand shown; sample: in vitro; tested at: 2 µM; with: Cbf1 competitor, 0.05 µM; direction: higher = stronger binding
Target: Phosphate system positive regulatory protein PHO4, full length, GST-tagged (PHO4, Saccharomyces cerevisiae, UniProt P07270, residues 1-312)
Notes: whole 60-bp probe, lowest competitor level
Target sequence (chain): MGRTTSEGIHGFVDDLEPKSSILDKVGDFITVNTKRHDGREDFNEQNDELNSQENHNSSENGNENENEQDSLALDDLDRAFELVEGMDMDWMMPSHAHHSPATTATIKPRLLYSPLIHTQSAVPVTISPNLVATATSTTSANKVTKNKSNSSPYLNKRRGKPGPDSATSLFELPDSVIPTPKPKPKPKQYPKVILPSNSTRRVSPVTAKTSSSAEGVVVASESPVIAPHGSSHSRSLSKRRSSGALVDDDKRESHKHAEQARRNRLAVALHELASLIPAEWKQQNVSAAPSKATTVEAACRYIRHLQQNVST
The fluorescence intensity of `CGTCCTAGTGATTGGAAGGTGGGTGCCATGAGGAAGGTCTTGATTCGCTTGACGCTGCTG` is reported as 6840 a.u.
For `GATCCTCGCCTGGGTGGCGTGCTTTGTGGTGAATGCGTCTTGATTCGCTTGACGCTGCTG`, the fluorescence intensity was 6810 a.u.
`AAATTACTAAGTTGCATAGTGGGTGACGCCGTATGAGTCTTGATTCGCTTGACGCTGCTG` has a fluorescence intensity of 4450 a.u.
`AAATTACTAAGTTGCAGTGTGGGTGACGCCGTATGAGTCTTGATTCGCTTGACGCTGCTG` has a fluorescence intensity of 5130 a.u.
For `AATTGATTCATATGGAACGTGACTCGTCCTCTGTAGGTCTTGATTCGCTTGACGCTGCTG`, the fluorescence intensity was 10500 a.u.
The fluorescence intensity of `CCGATTTAAATGTCCCACGTAAACTTTTCGCCAATTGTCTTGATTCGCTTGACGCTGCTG` is reported as 5640 a.u.
The fluorescence intensity of `TGTTTCGCGGCGTTACACGTGAGATCCTATTATTTCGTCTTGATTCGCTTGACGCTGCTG` is reported as 10100 a.u.
With `TGTAAATTTTTGTATAATTTCATCATGGAGGTGCATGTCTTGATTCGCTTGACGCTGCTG` the fluorescence intensity was 5220 a.u.
With `GTCTTGTCTCATTGGGCGGTGGGTGTCCCCACTTCAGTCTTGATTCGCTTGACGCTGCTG` the fluorescence intensity was 4850 a.u.
`AACATTATGGAAGTCCATGTGAATAATTCACTCAAGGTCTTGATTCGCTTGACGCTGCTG` gave a fluorescence intensity of 5290 a.u.
With `TTAACGGGAAGGCGCGTCGTGATGGTCTCGCGCTTTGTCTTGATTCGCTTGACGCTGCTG` the fluorescence intensity was 5280 a.u.
With `AATTGGCGTAATCCAGCCGTGATGGCGATGACCAGGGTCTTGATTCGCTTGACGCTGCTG` the fluorescence intensity was 3350 a.u.
For `AAGCGGATGGACTGGCACGCTCACCATCTGGGTTGGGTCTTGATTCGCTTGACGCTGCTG`, the fluorescence intensity was 8110 a.u.
With `AAAGCGGTAATTTGCGTTGTGGGTGCAGATATCTATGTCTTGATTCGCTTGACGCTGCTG` the fluorescence intensity was 4560 a.u.
For `AATCGCGATCCCCATCACGTTCTTTAGCCTCATTATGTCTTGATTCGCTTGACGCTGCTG`, the fluorescence intensity was 12200 a.u.
`CTAACGAAGGTTTGATTAGTGGGTGACAAGCCAAGTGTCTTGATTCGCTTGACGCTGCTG` gave a fluorescence intensity of 3520 a.u.
`CTAACGAAGGTTTTTCACGTGTGGTACAAGCCAAGTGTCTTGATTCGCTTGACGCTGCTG` gave a fluorescence intensity of 13300 a.u.
For `TCAAAGCCTTACTGGCACGCATCCTGATGGGGACGCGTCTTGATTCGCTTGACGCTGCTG`, the fluorescence intensity was 8270 a.u.
The fluorescence intensity of `AAATTACTAAGTTGTCACGGGACTTACCCCGTATGAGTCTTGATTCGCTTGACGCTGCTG` is reported as 6070 a.u.
`TTGCCATCCGGATTGAACGTGTAGCAGTTTTTAAAGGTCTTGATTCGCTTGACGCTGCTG` has a fluorescence intensity of 9960 a.u.
`CATACCCAACCTTTTCACGTGACTTAAGATATTTGTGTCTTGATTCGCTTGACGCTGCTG` gave a fluorescence intensity of 12500 a.u.
`GATGAGTATACTTGGTACGTGCCTACGCAGCCAATAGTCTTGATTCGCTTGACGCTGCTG` gave a fluorescence intensity of 7510 a.u.
`ACAACGTAAAACTTGCATGTGAGGCTTAGGTGATTTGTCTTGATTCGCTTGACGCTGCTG` has a fluorescence intensity of 7500 a.u.
The fluorescence intensity of `GCCCTGTCCAGGATTGGCGTGGGACCGCTGGCCGCAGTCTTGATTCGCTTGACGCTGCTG` is reported as 3830 a.u.
`CTTTCCCGATCTTGCGTCGTGGGTGTAGCACATTTGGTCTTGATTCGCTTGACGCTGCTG` gave a fluorescence intensity of 8020 a.u.

For quick reference, copied from above (sample 1):
With `CTGGTGCC` the E-score was -0.319.
`GTTCTCTA` has an E-score of 0.0478.
The E-score of `AATAAGTA` is reported as 0.348.
`CAGATGTA` gave an E-score of 0.109.
The E-score of `GCTGTACC` is reported as -0.205.
For `CAGGACGA`, the E-score was -0.228.
